Measured values collected from several papers.
± marks the error that the study gave.

| Structure (SMILES) | target or system | assay | test system | setting | how to read | measurement | value |
| --- | --- | --- | --- | --- | --- | --- | --- |
| CCCC[C@@H]1NC(=O)[C@@H](NC(=O)[C@H](CCC(=O)O)NC(=O)CNC(=O)CN2CCN(CC(=O)O)CCN(CC(=O)O)CCN(CC(=O)O)CC2)CCCCNC(=O)C[C@@H](C(N)=O)NC(=O)[C@H](C(C)C)NC(=O)[C@@H]2CCCN2C(=O)[C@H](CCCNC(=N)N)NC(=O)CNC(=O)[C@H](Cc2c[nH]c3ccccc23)NC(=O)[C@H](CCCNC(=N)N)NC(=O)[C@@H](Cc2ccccc2)NC(=O)[C@H](Cc2c[nH]cn2)NC(=O)[C@H](CCC(=O)O)NC1=O [gallium-67 labelled] |  |  | C57 mice with B16/F1 melanoma | intravenous, 0.037 MBq/mouse, 4 h | reference: tumour over muscle | tumour to muscle ratio | 203 |
| O=C(O)CCC(NP(=O)(O)OCCC[C@@H](NC(=O)CC[C@H](NC(=O)CCCCCNC(=O)c1ccc([18F])cc1)C(=O)O)C(=O)O)C(=O)O (stereo partly shown) | CWR22Rv1 tumour model |  | host not given, heart | 4 h, tumour-bearing |  | tracer uptake | 0.067 %ID/g |
| N=C(N)NCCC[C@@H]1NC(=O)[C@H](Cc2c[nH]c3ccccc23)NC(=O)[C@@H](CC2CCCCC2)NC(=O)[C@@H]2CCCN2C(=O)[C@@H](NC(=O)CCc2ccccc2)CCCNC1=O |  |  | C57BL/6J mouse, plasma | subcutaneous, 1 mg/kg, single dose |  | AUC | 3350 ng·h/mL |
| COc1cc(O)c(-c2c(O)cc(OC)c3c2ccc2cc(O)ccc23)c2ccc3ccccc3c12 | BV-2 | cell growth or viability, MTT |  | 40 µM, 24 h |  | viability | 44.5% |
| N#CCc1cccc(Cl)c1-c1ccc2[nH][11c](=O)[nH]c2c1 | P-glycoprotein and Bcrp | ex vivo brain uptake | mouse | injection, 5 min, added: tariquidar | reference: without tariquidar | brain uptake increase | 146% |
| Cn1c(=O)oc2ccc(-c3ccc(CC(C#N)NC(=O)C4CNCCCO4)c(F)c3)cc21 (stereo not shown) |  | measured: macule | human | 40 mg single dose, fasted |  | subjects with TRAE | 0% |
| [64Cu+2].c1cnc(CNCc2ccc(CN3CCCN4CCNCCCN(CC4)CC3)cc2)nc1 | CXCR4 |  | NOD/SCID mouse, U87 xenografts, U87 tumour | 90 min, added: AMD3465 25 mg/kg sc |  | tissue uptake | 1.5 ± 0.16 %ID/g |
| CC(=O)N[C@H](C(=O)N[C@H](C(=O)N[C@@H](CCCNC(=N)N)C(=O)N1Cc2ccccc2C[C@H]1C(=O)N[C@@H](Cc1ccccc1)C(N)=O)C1CCCCC1)C(C)C | human PBMC | Bio-Plex multiplex, measured: RANTES |  | 500 µg/mL, 24 h |  | cytokine level | 6990 ± 8150 pg/mL |
| COc1cc(O)cc2c1-c1ccc(O)c(OC)c1CC2 | BV-2 | cell growth or viability, MTT |  | 10 µM, 24 h |  | viability | 101% |
| [64Cu+2].c1ccc(CNCc2ccc(CN3CCCN4CCNCCCN(CC4)CC3)cc2)nc1 | CXCR4 |  | NOD/SCID mouse, U87 and U87-stb-CXCR4 xenografts, kidney | iv, 90 min, ex vivo, added: AMD3465 25 mg/kg sc before tracer |  | tissue uptake | 14.7 ± 1.82 %ID/g |

A few entries again:
| Structure (SMILES) | target or system | assay | test system | setting | how to read | measurement | value |
| --- | --- | --- | --- | --- | --- | --- | --- |
| [64Cu+2].c1cnc(CNCc2ccc(CN3CCCN4CCNCCCN(CC4)CC3)cc2)nc1 | CXCR4 |  | NOD/SCID mouse, U87 xenografts, U87 tumour | 90 min, added: AMD3465 25 mg/kg sc |  | tissue uptake | 1.5 ± 0.16 %ID/g |
| CC(=O)N[C@H](C(=O)N[C@H](C(=O)N[C@@H](CCCNC(=N)N)C(=O)N1Cc2ccccc2C[C@H]1C(=O)N[C@@H](Cc1ccccc1)C(N)=O)C1CCCCC1)C(C)C | human PBMC | Bio-Plex multiplex, measured: RANTES |  | 500 µg/mL, 24 h |  | cytokine level | 6990 ± 8150 pg/mL |
